Measurements from different studies.
Numbered parts are unrelated; each lists some results of a single study.

Study 1
Target: Serine/threonine-protein kinase haspin (HASPIN, Homo sapiens, UniProt Q8TF76)
UniProt Q8TF76, sequence (whole entry, looked up): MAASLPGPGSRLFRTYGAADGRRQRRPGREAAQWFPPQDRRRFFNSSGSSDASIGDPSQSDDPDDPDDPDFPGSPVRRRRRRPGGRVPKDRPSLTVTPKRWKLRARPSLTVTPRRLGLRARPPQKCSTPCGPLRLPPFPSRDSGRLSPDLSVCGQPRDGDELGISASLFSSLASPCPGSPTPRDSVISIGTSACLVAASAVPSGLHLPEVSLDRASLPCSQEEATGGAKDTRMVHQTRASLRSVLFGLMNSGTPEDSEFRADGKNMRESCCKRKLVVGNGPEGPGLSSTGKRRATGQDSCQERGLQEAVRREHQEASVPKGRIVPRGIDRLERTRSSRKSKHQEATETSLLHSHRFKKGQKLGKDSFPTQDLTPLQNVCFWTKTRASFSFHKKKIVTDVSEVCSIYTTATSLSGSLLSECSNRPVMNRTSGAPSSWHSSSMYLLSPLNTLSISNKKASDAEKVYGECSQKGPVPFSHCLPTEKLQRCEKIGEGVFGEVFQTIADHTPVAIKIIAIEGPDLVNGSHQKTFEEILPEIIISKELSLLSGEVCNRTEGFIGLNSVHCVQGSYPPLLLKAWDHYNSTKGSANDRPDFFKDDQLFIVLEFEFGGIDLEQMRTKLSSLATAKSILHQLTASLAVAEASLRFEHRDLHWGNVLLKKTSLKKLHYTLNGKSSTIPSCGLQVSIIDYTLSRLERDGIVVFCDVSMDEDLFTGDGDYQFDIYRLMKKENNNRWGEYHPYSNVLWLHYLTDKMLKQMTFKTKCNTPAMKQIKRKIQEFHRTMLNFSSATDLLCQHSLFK
Effect on: enzyme activity
Mode: inhibitor
Tested at: 0.5 µM
Relative to: control
Structure (SMILES) | remaining activity [%]
O=C1Nc2ccccc2/C1=C\c1c(Cl)[nH]c2ccccc12 | 91
COc1ccc2c(c1)c(C1=C(c3c[nH]c4ccccc34)C(=O)NC1=O)cn2CCCN(C)C | 93.5
O=c1cc(N2CCOCC2)oc2c(-c3ccccc3)cccc12 | 93.4
Oc1cccc(-c2nc(N3CCOCC3)c3oc4ncccc4c3n2)c1 | 90.3
Cc1cc(Nc2cc(N3CCN(C)CC3)nc(Sc3ccc(NC(=O)C4CC4)cc3)n2)[nH]n1 | 68
c1ccc(-c2n[nH]c3c2oc2ccccc23)cc1 | 99.3
O=C(c1cc2cc(O)ccc2[nH]1)c1cc2cc(O)ccc2[nH]1 | 34.8
N#Cc1cnc2cnc(NCc3cccnc3)cc2c1Nc1ccc(F)c(Cl)c1 | 82.5
CN(C)S(=O)(=O)c1ccc2c(c1)/C(=C/c1cc3c([nH]1)CCCC3)C(=O)N2 | 116

Study 2
Organism: Sarcocystis neurona
Effect on: parasite activity
Tested at: 10 µM
Time: 96 h
Structure (SMILES) | activity class
CC(=O)O[C@H]1C[C@@H]2CC[C@@H]3[C@H](CC[C@@]4(C)[C@H]3C[C@H]([N+]3(C)CCCCC3)[C@@H]4OC(C)=O)[C@@]2(C)C[C@@H]1N1CCCCC1 | inactive
COc1ccc(-c2cc(=O)c3c(OC)c(OC)c(OC)c(OC)c3o2)cc1OC | inactive
C=C(CC)C(=O)c1ccc(OCC(=O)O)c(Cl)c1Cl | inactive
C[N+]1(C)CCC(OC(=O)C(O)(c2ccccc2)C2CCCC2)C1 (stereo not drawn) | inactive
Cn1cc[nH]c1=S | inactive

Study 3
Host: mouse
Matrix: microsomes or S9
Tested at: 2 µM
Time: 0.5 h
SMILES | remaining compound
O=c1ccc2cnc(N[C@H]3CC[C@H](O)CC3)nc2n1C1CCCCC1 | 32.6%
Cc1cc(CN2CCN(Cc3cc(C)c(O)c(C)c3)CC2)cc(C)c1O | 71.3%
Cc1cc(-c2cnc(C)nc2-c2sccc2C)on1 | > 100%
CCCn1cc(S(=O)(=O)N2CCC(c3nc4cnccn4c3NC(C)(C)C)CC2)c(C)n1 | 5.45%
Cc1cc(OCC(O)CN2C(C)(C)CC(O)CC2(C)C)ccc1C(C)C (stereo not drawn) | 2.87%

Study 4
Target: 5-hydroxytryptamine receptor 6 (HTR6, Homo sapiens, UniProt P50406)
UniProt P50406, sequence (whole entry, looked up): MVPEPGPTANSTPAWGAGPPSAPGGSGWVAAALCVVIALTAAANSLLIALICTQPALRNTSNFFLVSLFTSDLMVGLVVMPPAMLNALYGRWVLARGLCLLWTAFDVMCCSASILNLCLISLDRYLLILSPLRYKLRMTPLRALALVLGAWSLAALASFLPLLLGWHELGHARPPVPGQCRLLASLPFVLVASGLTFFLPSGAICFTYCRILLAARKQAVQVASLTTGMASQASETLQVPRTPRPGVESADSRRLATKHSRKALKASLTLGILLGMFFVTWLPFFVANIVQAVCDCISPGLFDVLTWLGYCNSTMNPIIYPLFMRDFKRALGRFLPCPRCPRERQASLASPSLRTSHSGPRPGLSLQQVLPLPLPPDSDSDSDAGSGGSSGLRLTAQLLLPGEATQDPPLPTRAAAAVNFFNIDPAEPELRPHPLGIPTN
Effect on: ligand displacement
Tested at: 10 µM
Structure (SMILES) | inhibition
COc1cccc(NC(=O)c2nc3scc(CN(C)Cc4ccccc4)c3c(=O)[nH]2)c1 | 3.76%
CN([C@@H]1CCc2c(CC(=O)O)c3ccccc3n2C1)S(=O)(=O)c1ccc(F)cc1 | -14.6%
CN(C)CC#Cc1ccc(OCCCc2sc(N3CCc4cccc(C(=O)Nc5nc6ccccc6s5)c4C3)nc2C(=O)O)c(F)c1 | -1.75%
c1ccc(C2CCN(c3cnc4c(N5CCOCC5)nccn34)CC2)cc1 | -7.87%
O=C(N[C@H]1CCCCC/C=C\C2C[C@@]2(C(=O)O)NC(=O)[C@@H]2C[C@@H](Oc3ccncc3)CN2C1=O)OC1CCCC1 (stereo partly drawn) | -7.71%
Cc1ccc(-c2cnc([C@@]3(O)CC[C@H](C(=O)O)C(C)(C)C3)s2)cc1Nc1cccc(C(F)(F)F)n1 | 6.66%
COc1cc(N[C@@H]2CCCC[C@]2(O)C(F)(F)F)ccc1F | -4.02%
O=S(=O)(NC1CCC(c2cc(F)ccc2F)(S(=O)(=O)c2ccc(Cl)cc2)CC1)C(F)(F)F (stereo not drawn) | 12.4%
O=C(Nc1ccc(Oc2ccc(F)cc2)cc1)N1CCc2ncccc2[C@H]1c1ccc(F)cc1 | 16.9%
N#CC1(c2ccccn2)CCN(Cc2cc(C(=O)N3CCCC3)c(=O)n3ccccc23)CC1 | 2.79%
CNC(=O)Nc1ccc2c(c1)CC[C@]21OC(=O)N(CC(=O)N(Cc2ccc(F)cc2)[C@@H](C)C(F)(F)F)C1=O | 32.6%
CS(=O)(=O)N1CCCC(NC(=O)[C@H](CCC2CCCCC2)NC(=O)c2ccc(CNC(=O)c3cnc4ccccn34)cc2)C1 (stereo partly drawn) | 18.2%
Nc1nc(NCc2ccccc2)nc(-c2ccccc2CO)n1 | 19.4%
CN1CCN(c2cnc3c(C4CCN(C(=O)c5ccc(OC(F)(F)F)cc5N)CC4)ncnc3c2)CC1 | -4.69%

Repeated from above (study 1):
Structure (SMILES) | remaining activity [%]
COc1ccc2c(c1)c(C1=C(c3c[nH]c4ccccc34)C(=O)NC1=O)cn2CCCN(C)C | 93.5
O=c1cc(N2CCOCC2)oc2c(-c3ccccc3)cccc12 | 93.4
